Assay results pooled from the literature.
Each line is one published result; not all experiments were run side by side. “And” joins repeats or separate records; there may be more than shown. ± marks the error that the study gave.
PTGS1: Prostaglandin G/H synthase 1 (PTGS1, Homo sapiens, UniProt P23219)
Sequence of UniProt P23219 (whole entry, looked up): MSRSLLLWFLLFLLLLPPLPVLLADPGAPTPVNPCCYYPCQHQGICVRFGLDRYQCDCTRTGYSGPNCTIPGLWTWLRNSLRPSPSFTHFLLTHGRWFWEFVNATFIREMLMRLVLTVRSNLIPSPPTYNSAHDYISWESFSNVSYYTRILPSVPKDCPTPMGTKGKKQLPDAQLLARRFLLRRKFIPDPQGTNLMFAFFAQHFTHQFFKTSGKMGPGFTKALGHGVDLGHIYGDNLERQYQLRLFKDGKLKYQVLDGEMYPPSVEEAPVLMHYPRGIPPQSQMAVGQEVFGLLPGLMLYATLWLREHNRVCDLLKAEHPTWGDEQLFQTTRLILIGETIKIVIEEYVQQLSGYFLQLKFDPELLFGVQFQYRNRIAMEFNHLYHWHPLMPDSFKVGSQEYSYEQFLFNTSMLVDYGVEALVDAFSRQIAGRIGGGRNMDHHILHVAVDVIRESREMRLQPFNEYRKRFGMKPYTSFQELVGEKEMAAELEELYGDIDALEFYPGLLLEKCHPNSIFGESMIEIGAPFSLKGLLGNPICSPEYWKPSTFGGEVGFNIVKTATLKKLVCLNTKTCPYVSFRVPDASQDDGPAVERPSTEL
Sequence of UniProt P47811 (whole entry, looked up): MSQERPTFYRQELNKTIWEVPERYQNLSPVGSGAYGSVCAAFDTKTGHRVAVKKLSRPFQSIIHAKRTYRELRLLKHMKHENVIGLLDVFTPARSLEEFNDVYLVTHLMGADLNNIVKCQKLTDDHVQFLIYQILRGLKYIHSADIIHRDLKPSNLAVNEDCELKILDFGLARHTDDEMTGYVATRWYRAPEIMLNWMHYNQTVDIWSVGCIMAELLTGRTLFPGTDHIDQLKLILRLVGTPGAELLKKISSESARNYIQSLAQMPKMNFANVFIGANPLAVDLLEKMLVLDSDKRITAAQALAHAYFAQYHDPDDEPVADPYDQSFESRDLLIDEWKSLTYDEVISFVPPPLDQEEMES
Sequence of UniProt P51812 (whole entry, looked up): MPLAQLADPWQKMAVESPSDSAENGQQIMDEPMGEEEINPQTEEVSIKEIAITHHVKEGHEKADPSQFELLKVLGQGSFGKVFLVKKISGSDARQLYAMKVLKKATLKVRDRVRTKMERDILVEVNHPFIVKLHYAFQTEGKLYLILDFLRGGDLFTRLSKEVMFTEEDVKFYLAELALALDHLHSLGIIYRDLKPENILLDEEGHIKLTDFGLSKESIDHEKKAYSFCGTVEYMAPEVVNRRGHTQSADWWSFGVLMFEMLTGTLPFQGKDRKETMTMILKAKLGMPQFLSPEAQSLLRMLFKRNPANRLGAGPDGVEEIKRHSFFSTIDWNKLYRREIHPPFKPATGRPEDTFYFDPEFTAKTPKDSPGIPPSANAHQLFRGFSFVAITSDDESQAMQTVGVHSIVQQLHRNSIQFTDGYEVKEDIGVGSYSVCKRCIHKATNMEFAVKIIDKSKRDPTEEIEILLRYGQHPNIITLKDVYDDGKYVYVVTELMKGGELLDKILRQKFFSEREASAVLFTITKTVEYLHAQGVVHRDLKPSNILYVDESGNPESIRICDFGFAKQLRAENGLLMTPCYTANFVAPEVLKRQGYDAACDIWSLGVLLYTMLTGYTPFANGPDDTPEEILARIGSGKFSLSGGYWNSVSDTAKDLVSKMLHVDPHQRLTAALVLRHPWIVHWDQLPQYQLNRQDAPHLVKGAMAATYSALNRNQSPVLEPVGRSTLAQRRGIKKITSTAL
Sequence of UniProt P07947 (whole entry, looked up): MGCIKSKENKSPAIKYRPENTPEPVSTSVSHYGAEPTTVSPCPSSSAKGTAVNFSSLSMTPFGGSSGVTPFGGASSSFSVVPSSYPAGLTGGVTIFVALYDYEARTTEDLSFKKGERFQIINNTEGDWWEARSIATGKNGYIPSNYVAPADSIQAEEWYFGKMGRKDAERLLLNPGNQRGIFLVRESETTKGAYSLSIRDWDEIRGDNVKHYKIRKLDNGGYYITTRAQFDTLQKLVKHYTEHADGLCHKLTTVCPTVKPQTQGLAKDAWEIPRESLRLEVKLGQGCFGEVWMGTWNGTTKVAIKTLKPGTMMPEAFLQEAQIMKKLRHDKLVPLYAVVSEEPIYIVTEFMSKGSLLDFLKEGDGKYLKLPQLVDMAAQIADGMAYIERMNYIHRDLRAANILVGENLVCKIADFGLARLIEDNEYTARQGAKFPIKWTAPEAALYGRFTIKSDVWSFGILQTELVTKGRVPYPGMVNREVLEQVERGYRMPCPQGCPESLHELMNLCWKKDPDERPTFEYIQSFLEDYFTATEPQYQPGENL
Sequence of UniProt P05091 (whole entry, looked up): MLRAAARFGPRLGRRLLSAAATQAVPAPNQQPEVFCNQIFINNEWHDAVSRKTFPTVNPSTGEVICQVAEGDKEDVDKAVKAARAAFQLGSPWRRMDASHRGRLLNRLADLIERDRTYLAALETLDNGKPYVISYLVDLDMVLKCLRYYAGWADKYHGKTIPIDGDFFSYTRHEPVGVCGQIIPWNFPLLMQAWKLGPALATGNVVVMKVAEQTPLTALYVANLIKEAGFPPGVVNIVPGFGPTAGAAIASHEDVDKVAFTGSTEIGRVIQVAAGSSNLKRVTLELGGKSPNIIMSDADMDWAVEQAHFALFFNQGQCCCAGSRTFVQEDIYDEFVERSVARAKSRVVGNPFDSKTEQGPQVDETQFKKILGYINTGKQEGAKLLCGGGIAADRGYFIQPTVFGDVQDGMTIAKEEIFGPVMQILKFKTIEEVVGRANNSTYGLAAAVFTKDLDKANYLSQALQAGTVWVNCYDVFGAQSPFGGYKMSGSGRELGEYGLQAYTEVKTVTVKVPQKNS
Sequence of UniProt Q13164 (whole entry, looked up): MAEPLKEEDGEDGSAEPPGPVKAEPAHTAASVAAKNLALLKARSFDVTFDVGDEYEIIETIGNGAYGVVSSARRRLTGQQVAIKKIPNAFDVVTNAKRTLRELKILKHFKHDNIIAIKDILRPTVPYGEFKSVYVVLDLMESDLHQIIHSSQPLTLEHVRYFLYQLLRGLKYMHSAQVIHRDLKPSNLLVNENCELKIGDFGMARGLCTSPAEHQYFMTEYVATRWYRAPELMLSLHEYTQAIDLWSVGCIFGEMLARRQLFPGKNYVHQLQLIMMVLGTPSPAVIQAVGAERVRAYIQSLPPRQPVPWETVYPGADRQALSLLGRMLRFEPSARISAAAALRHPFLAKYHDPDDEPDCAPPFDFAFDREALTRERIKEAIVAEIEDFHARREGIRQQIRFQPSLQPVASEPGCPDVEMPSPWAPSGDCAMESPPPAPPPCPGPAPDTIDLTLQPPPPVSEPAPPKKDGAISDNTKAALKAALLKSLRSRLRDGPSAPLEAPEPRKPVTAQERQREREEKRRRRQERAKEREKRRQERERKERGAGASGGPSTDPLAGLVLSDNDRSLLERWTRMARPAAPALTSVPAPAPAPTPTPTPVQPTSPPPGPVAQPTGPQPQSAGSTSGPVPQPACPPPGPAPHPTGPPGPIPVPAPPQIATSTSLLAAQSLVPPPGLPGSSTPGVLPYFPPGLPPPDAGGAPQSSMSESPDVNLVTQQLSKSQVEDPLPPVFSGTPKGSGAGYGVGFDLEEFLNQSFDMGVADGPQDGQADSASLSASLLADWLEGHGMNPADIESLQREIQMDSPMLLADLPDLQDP
Sequence of UniProt P08170 (whole entry, looked up): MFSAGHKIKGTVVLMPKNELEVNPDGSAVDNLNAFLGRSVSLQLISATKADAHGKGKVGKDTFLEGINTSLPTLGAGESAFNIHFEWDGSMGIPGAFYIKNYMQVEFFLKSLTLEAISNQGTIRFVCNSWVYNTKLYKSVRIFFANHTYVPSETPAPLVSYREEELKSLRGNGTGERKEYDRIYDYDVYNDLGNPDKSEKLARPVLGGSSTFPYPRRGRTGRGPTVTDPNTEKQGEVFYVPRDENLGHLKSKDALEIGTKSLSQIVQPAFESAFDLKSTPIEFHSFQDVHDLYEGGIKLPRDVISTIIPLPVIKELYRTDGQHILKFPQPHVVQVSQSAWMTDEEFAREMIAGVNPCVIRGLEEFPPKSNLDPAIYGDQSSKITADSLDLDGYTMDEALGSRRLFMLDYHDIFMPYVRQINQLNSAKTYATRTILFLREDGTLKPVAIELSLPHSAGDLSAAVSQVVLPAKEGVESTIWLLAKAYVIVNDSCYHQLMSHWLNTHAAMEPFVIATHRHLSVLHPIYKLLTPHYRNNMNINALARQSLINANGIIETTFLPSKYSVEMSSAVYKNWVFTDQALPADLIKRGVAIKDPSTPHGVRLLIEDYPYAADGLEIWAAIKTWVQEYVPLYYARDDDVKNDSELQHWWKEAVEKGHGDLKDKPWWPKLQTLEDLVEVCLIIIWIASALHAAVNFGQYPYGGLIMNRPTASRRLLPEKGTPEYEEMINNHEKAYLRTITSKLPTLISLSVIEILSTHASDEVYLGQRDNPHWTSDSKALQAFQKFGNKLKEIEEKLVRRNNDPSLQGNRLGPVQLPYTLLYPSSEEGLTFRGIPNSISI
Sequence of UniProt O15530 (whole entry, looked up): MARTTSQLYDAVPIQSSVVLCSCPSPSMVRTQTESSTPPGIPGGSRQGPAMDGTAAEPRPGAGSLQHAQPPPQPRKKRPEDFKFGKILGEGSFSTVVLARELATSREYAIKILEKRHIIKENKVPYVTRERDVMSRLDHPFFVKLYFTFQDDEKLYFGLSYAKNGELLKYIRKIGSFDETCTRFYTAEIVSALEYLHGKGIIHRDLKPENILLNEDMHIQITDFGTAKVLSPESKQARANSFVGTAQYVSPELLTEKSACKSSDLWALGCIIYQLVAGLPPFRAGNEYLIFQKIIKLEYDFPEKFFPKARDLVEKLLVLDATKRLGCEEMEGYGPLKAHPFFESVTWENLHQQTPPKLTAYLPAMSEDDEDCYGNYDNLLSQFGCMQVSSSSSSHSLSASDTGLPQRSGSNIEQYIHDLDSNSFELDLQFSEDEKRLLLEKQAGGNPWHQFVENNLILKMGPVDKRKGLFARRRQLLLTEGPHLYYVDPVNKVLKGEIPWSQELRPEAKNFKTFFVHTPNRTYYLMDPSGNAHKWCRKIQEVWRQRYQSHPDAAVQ

SMILES | target | assay | system | setting | IC50
CN(C(=O)c1ccn2ncc(-c3ccc(C(N)=O)cc3)c2c1)c1ccc(C#N)cn1 | MAP3K8 (Homo sapiens, UniProt P41279) | enzyme activity, inhibitor |  |  | > 10 µM
N#C/C(=C\c1ccc2ccncc2c1)C(N)=O | Ribosomal protein S6 kinase alpha-3, C-terminal kinase domain (RPS6KA3, Homo sapiens, UniProt P51812) | enzyme activity, inhibitor |  | 10 mM reduced glutathione, added: 0.1 mM ATP, peptide substrate | 12.7 µM
COc1cc(N2CCN(C)CC2)ccc1Nc1ncc2c(n1)N(C)c1ccc(C)cc1C(=O)N2CC(F)(F)F | MAPK7 (Homo sapiens, UniProt Q13164) | enzyme activity, inhibitor, radiometric |  |  | > 10 µM
c1ccc2[nH]c(-c3n[nH]c4ccccc34)nc2c1 | PDPK1 (Homo sapiens, UniProt O15530) | enzyme activity, inhibitor |  |  | 3 µM
CNC(=O)c1cc(C)ccc1NC(=O)c1ccc(-c2cc(O)ccc2C)c(C)c1 | EPHA4 (Homo sapiens, UniProt P54764) | target engagement in cells, BRET |  |  | 0.227 µM
CCC[C@@H]1O[C@@H](Oc2c(-c3ccc(O)cc3)oc3cc(O)cc(O)c3c2=O)[C@H](O)[C@H](O)[C@H]1NC(C)=O | RPS6KA3 (Homo sapiens, UniProt P51812) | enzyme activity, inhibitor |  |  | 0.76 µM
CC(C)C[C@@H](NC(=O)[C@@H](Cc1ccccc1)NC(=O)[C@H]1CCCN1C(=O)[C@@H](CCC(N)=O)NC(=O)[C@H](NC(=O)[C@H]1CCCN1C(=O)[C@@H](CCCNC(=N)N)NC(=O)[C@@H](CO)NC(=O)[C@@H](CCC(N)=O)NC(=O)[C@@H](CC(=O)O)NC(=O)[C@H](N)[C@H](C)O)C(C)C)C(=O)N[C@H](CC(N)=O)C(=O)N[C@H](CC(C)C)C(=O)N[C@@H](C(=O)N[C@@H](C(=O)N1CCC[C@@H]1C(=O)N[C@H](CCCNC(=N)N)C(=O)N[C@H](CCCCN)C(=O)N1CCC[C@@H]1C(=O)N[C@H](CCCNC(=N)N)C(=O)N1CCC[C@@H]1C(=O)N1CCC[C@@H]1C(=O)N[C@H](CCCNC(=N)N)C(=O)N[C@H](CCCNC(=N)N)C(=O)N[C@H](CCCNC(=N)N)C(=O)N[C@H](CCC(N)=O)C(=O)N[C@H](CCCNC(=N)N)C(=O)N[C@H](CCCNC(=N)N)C(=O)N[C@H](CCCCN)C(=O)N[C@H](CCCCN)C(=O)N[C@H](CCCNC(=N)N)C(=O)NCC(N)=O)[C@H](C)O)[C@H](C)O | Mapk14 (Mus musculus, UniProt P47811) | enzyme activity, inhibitor, radiometric |  | pH 7.5 | 1.87 µM and 1.8 µM
O=C(Nc1ccc(Cl)cc1)c1ccc([N+](=O)[O-])o1 | Txnrd1 (Rattus norvegicus, UniProt O89049) | enzyme activity, inhibitor |  |  | 10.7 µM
COc1ccnc(-n2[nH]cc(-c3cccnc3)c2=O)c1 | EGLN2 (Homo sapiens, UniProt Q96KS0) | enzyme activity, inhibitor, europium VBC binding |  | 10 µM FeSO4, 2 mM ascorbate, added: 20 µM 2-oxoglutarate | 0.86 µM
CC(=O)NCCN(CC(=O)NCCN(CC(=O)NCCN(CC(=O)NCCC(N)=O)C(=O)C[C@@H](N)CCCCN)C(=O)C[C@@H](N)Cc1ccccc1)C(=O)C[C@@H](N)Cc1ccccc1 | HIV-1 TAR RNA | Tat/TAR complex displacement, FRET |  | room temperature, added: 10 nM Tat/TAR complex | 42.4 ± 0.7 µM
COc1cc(-c2nc3ccc(C(=O)NCCCN4CCN(c5cccc(C)c5C)CC4)cc3n2C2CCC2)cc(OC)c1OC | ACVR1 (Homo sapiens, UniProt Q04771) | target engagement in cells, BRET |  |  | 0.79 µM
CC(=O)N[C@H]1[C@@H](OC(=O)NCCCOCCOCCOCCCNC(=O)O[C@H]2O[C@H](CNC(=O)OCCOCCOCCOCCOCCOCCOCCOCCOCCOC(=O)NC[C@H]3O[C@H](OC(=O)NCCCOCCOCCOCCCNC(=O)O[C@H]4O[C@H](CO)[C@@H](O)[C@H](O)[C@H]4NC(C)=O)[C@H](NC(C)=O)[C@@H](O)[C@@H]3O)[C@@H](O)[C@H](O)[C@H]2NC(C)=O)O[C@H](CO)[C@@H](O)[C@@H]1O | wheat germ agglutinin (Triticum vulgaris) | binding to immobilised GlcNAc, inhibitor, enzyme-linked lectin |  | added: HRP-labelled WGA | 0.035 µM
Cc1ccc(-c2cc(C(=O)Nc3cccnc3)c3cc(Br)ccc3n2)o1 | TPR (Trypanosoma brucei brucei, UniProt P39051) | inhibitor, DTNB-coupled colourimetric |  | added: substrate at Km | 7.2 µM
CC[C@H](C)[C@H](NC(=O)[C@H](Cc1ccc(O)cc1)NC(=O)[C@@H](NC(=O)[C@H](CCCN=C(N)N)NC(=O)CNC)C(C)C)C(=O)N[C@@H](Cc1c[nH]cn1)C(=O)N1CCC[C@H]1C(=O)N[C@H](C(=O)O)[C@@H](C)O | Type-2 angiotensin II receptor (Rattus norvegicus, UniProt P35351) | ligand displacement, radioligand |  | pH 7.4, cell membranes | 0.0003 µM
Clc1ccc(NCc2cn(-c3ccccc3)nc2-c2ccc(OCc3ccccc3)cc2)cc1 | PTGS1 | enzyme activity, inhibitor, absorbance |  |  | 205 µM
O=C(c1cc([N+](=O)[O-])ccc1Cl)N1CCN(c2ccc(F)cc2)CC1 | SEC14 (Saccharomyces cerevisiae, UniProt P24280) | enzyme activity, inhibitor, radiometric |  |  | > 100 µM
CC(=O)NCCN(CC(=O)NCCN(CC(=O)NCCN(CC(=O)NCCC(N)=O)C(=O)[C@@H](N)CCCNC(=N)N)C(=O)[C@@H](N)Cc1ccccc1)C(=O)[C@@H](N)Cc1ccccc1 | HIV-1 TAR RNA | Tat/TAR complex displacement, FRET |  | room temperature, added: 10 nM Tat/TAR complex | 103.8 ± 0.4 µM

SMILES | target | assay | system | setting | IC50
COc1ccc(S(=O)(=O)NCc2c[nH]nc2-c2cccs2)cc1 | Myosin-7 (MYH7, Bos taurus, UniProt Q9BE39) | ATPase activity, inhibitor |  |  | 10 µM
CC(C)OC(=O)C(CS)N1C(=O)c2ccc(N(C)C)cc2C1=O (stereo not shown) | Metallo-beta-lactamase type 2 (Serratia marcescens, UniProt P52699) | enzyme activity, inhibitor |  | pH 7.0, added: chromacef 25 µM | 0.035 ± 0.006 µM
CNC(=O)c1ccc(Oc2nc3c(c(=O)n(C)c(=O)n3C)n2CCC(C)C)cc1 | ALDH2 (Homo sapiens, UniProt P05091) | enzyme activity, inhibitor |  |  | 2.4 µM
COc1ccc(/C=C2/C(=O)Cc3c2[nH]c2ccccc32)cc1 | Aurora kinase B (AURKB, Homo sapiens, UniProt Q96GD4) | enzyme activity, inhibitor, radiometric |  |  | 1.6 µM
NC(=O)Nc1nc2cc(Br)ccc2[nH]c1=O | Sensor histidine protein kinase/phosphatase WalK (walK, Streptococcus pneumoniae, UniProt Q8DPL8) | enzyme activity, ATP-competitive inhibitor |  |  | 171 µM
Nc1ncnc2c1ncn2C1OC(COP(=O)(O)O)C(O)C1O (stereo not shown) | Fructose-1,6-bisphosphatase 1 (Mus musculus, UniProt Q9QXD6, Y114F) | enzyme activity, inhibitor |  | His-tagged mouse Y114F mutant | 13300 µM
C=C(NC(=O)C(=C)NC(=O)c1csc(C2=NC3c4csc(n4)C4NC(=O)c5csc(n5)C(C(C)(O)C(C)O)NC(=O)C5CSC(=N5)C(=CC)NC(=O)C(C(C)O)NC(=O)c5csc(n5)C3(CC2)NC(=O)C(CC(C)C)NC(=O)C(=C)NC(=O)C(C)NC(=O)C(C(C)CC)NC2C=Cc3c(C(C)O)cc(nc3C2O)C(=O)OC4C)n1)C(N)=O (stereo not shown) | Proteasome subunit beta type-7, in 20S proteasome (PSMB7, Homo sapiens, UniProt Q99436) | trypsin-like activity, inhibitor | purified 20S proteasome | 15 min preincubation, 37 °C, added: Boc-Leu-Arg-Arg-AMC substrate | 0.34 ± 0.04 µM
CC[C@H](C)[C@H](NC(=O)CNC(=O)[C@H](CC(=O)O)NC(=O)[C@H](CO)NC(=O)Cc1cccnc1)C(=O)N[C@@H](Cc1ccccc1)C(=O)N[C@H](C(=O)N[C@@H](CC(=O)O)C(=O)N[C@@H](CO)C(=O)N[C@@H](Cc1ccc(O)cc1)C(=O)N[C@@H](CO)C(=O)N[C@@H](CCCNC(=N)N)C(=O)N[C@@H](Cc1ccc(O)cc1)C(=O)N[C@@H](CCCNC(=N)N)C(=O)N[C@@H](CCCCN)C(=O)N[C@@H](CCC(N)=O)C(=O)N[C@@H](CCSC)C(=O)N[C@@H](C)C(=O)N[C@H](C(=O)N[C@@H](CCCCN)C(=O)N[C@@H](CCCCN)C(=O)N[C@@H](C)C(=O)N[C@@H](CC(C)C)C(=O)N[C@@H](C)C(=O)N[C@@H](C)C(=O)N[C@H](C(=O)N[C@@H](CC(C)C)C(=O)NCC(=O)N[C@@H](CCCCN)C(=O)N[C@@H](CCCNC(=N)N)C(=O)N[C@@H](Cc1ccc(O)cc1)C(=O)N[C@@H](CCCCN)C(=O)N[C@@H](CCC(N)=O)C(=O)N[C@@H](CCCNC(=N)N)C(=O)N[C@H](C(=O)N[C@@H](CCCCN)C(=O)N[C@@H](CC(N)=O)C(=O)N[C@@H](CCCCN)C(N)=O)C(C)C)C(C)C)C(C)C)[C@@H](C)O | ADCYAP1R1 (Homo sapiens, UniProt P41586) | ligand displacement, radioligand |  |  | 0.0832 µM
COc1cc(/C=C/c2ccc(N)cc2)cc(OC)c1OC | PTGS1 | enzyme activity, inhibitor |  |  | 1.4 µM
NC(=O)[C@@H]1CCNC(=O)[C@H](CCCNC(=O)c2cnccn2)NC(=O)[C@H](Cc2ccco2)NC(=O)[C@H](CC2CC2)NC(=O)/C=C\C(=O)N1 | Lck (Mus musculus, UniProt P06240) | enzyme activity, inhibitor, absorbance |  |  | > 100 µM
CC(C)n1ccn2cc(C(=O)NCc3ccc(F)cc3F)c(=O)c(O)c2c1=O | gag-pol/sso7d, integrase (Human immunodeficiency virus type 1 group M subtype B, UniProt P12497+P39476) | integrase strand transfer, inhibitor, concerted integration | HIV-1 |  | 0.109 µM
COC1C=CC=C(C)C(=O)NC2=CC(=O)C(NCCN(C)C)=C(CC(C)CC(OC)C(O)C(C)C=C(C)C1OC(N)=O)C2=O (stereo not shown) | KDM4B (Homo sapiens, UniProt O94953) | enzyme activity, inhibitor, AlphaScreen |  |  | < 1 µM
Cc1ccc(C(=O)/C=C/c2ccc(N(C)CCO)cc2)o1 | Seed linoleate 13S-lipoxygenase-1 (Glycine max, UniProt P08170) | enzyme activity, inhibitor, absorbance |  |  | 45.1 µM
Nc1nc(Cl)nc2c1ncn2Cc1cc(OCC(F)F)cc(OC(F)F)c1 | PDE7A (Homo sapiens, UniProt Q13946) | enzyme activity, inhibitor |  |  | 4.85 µM
CNC(=O)C1CCN(c2ccccc2NC(=O)c2ccc(-c3c(C)ccc4[nH]ncc34)c(C)c2)CC1 | YES1 (Homo sapiens, UniProt P07947) | target engagement in cells, BRET |  |  | 10.9 µM
Cc1cc(C)c2ccc(C3=C(O)c4ccccc4C3=O)nc2c1O | CD38 (Homo sapiens, UniProt P28907) | enzyme activity, inhibitor, fluorescence |  |  | 5.2 µM
CN1CCN(c2ccc(/C=C3\C(=O)Nc4ccc(-c5ccc(-c6ccc(O)cc6)cc5)cc43)cc2)CC1 | FGFR4 (Homo sapiens, UniProt P22455) | enzyme activity, inhibitor |  |  | 19.8 µM

Excerpt of the above:
SMILES | target | assay | system | setting | IC50
CC(C)OC(=O)C(CS)N1C(=O)c2ccc(N(C)C)cc2C1=O (stereo not shown) | Metallo-beta-lactamase type 2 (Serratia marcescens, UniProt P52699) | enzyme activity, inhibitor |  | pH 7.0, added: chromacef 25 µM | 0.035 ± 0.006 µM
CNC(=O)c1ccc(Oc2nc3c(c(=O)n(C)c(=O)n3C)n2CCC(C)C)cc1 | ALDH2 (Homo sapiens, UniProt P05091) | enzyme activity, inhibitor |  |  | 2.4 µM
COc1ccc(/C=C2/C(=O)Cc3c2[nH]c2ccccc32)cc1 | Aurora kinase B (AURKB, Homo sapiens, UniProt Q96GD4) | enzyme activity, inhibitor, radiometric |  |  | 1.6 µM
NC(=O)Nc1nc2cc(Br)ccc2[nH]c1=O | Sensor histidine protein kinase/phosphatase WalK (walK, Streptococcus pneumoniae, UniProt Q8DPL8) | enzyme activity, ATP-competitive inhibitor |  |  | 171 µM
